Published values from different studies.
Compare with care: the assays were run in different laboratories. Values joined by “and” are separate records of one study, mostly repeats; a detail may differ. ± gives the spread as reported.

`CCN1CCC(CCNCc2cc3ccccc3nc2SCc2ccccc2)CC1` gave an inhibition of 67% (electron transport chain; proton pumping, ACMA quenching; Pseudomonas aeruginosa inverted membrane vesicles; 32 µg/mL, with: NADH).
With `O=C(N/N=C/c1ccc2c(ccc[n+]2Cc2ccccc2)c1)c1cccc(C(=O)N/N=C/c2ccc3c(ccc[n+]3Cc3ccccc3)c2)c1` the ΔTm was 13.6 ± 0.2 °C (22CTA telomeric G4-DNA antiparallel; FRET melting; 1 µM, K10 buffer, DNA 0.2 µM, with: ds26 10 µM).
`C=CC(=O)N1[C@@H](c2ccc3c(c2)OCO3)c2[nH]c3ccccc3c2C[C@H]1C(=O)N1CCN(C)CC1` gave a relative co-enrichment of 98% (human cyclin E1 wild type-3xFLAG:CDK2; co-IP with TMT proteomics, measured: ATAD3A; concentration not given, Q9NVI7; relative to: wild type DMSO).
For `O=c1c(Oc2ccccc2)c(C(F)(F)F)oc2c(O)c(O)ccc12`, the di-ubiquitin formed was 60% (ROC1-CUL1 E3 subcomplex; di-ubiquitin synthesis; 10 µM; relative to: input).
For `O=C(N/N=C/c1cc[n+](Cc2ccccc2)c2ccccc12)c1ccc2ccc3ccc(C(=O)N/N=C/c4cc[n+](Cc5ccccc5)c5ccccc45)nc3c2n1`, the ΔTm was 20.7 ± 1.2 °C (22CTA telomeric G4-DNA antiparallel; FRET melting; 1 µM, K10 buffer, DNA 0.2 µM).
Under “log2 fold change”, `c1ccc(-c2n[nH]cc2-c2ccnc3ccccc23)nc1` is recorded as -0.02 (HRK1 (Candida albicans); kinase binding, MIB/MS competition; Candida albicans lysate; 10 µM; relative to: DMSO).
`O=c1c(-c2cnn(-c3ccc(Cl)cc3)c2)c(C(F)(F)F)oc2c(O)c(O)ccc12` has a di-ubiquitin formed of 65% (ROC1-CUL1 E3 subcomplex; di-ubiquitin synthesis; 37.5 µM; relative to: input).
The remaining binding of `Nc1ncc(-c2cc(-c3cnn(CC(F)(F)F)c3)ncc2F)nc1C(=O)NC1CNCC(F)C1` (stereo not drawn) is reported as 63% (AMPK-alpha2; KINOMEscan competition binding; 1 µM; relative to: DMSO control).
For `O=C(NCc1cccc(Cl)c1)c1ccc([C@H]2[C@@H](F)[C@@H](F)C[C@@H](F)[C@H]2F)cc1`, the hepatic clearance was 44 mL/min/kg (liver microsome stability; mouse liver microsomes; 1 µM).
`OC[C@H]1O[C@@H]2O[C@H]3[C@H](O)[C@@H](O)[C@@H](O[C@H]4[C@H](O)[C@@H](O)[C@@H](O[C@H]5[C@H](O)[C@@H](O)[C@@H](O[C@H]6[C@H](O)[C@@H](O)[C@@H](O[C@H]7[C@H](O)[C@@H](O)[C@@H](O[C@H]1[C@H](O)[C@H]2O)O[C@@H]7CO)O[C@@H]6CO)O[C@@H]5CO)O[C@@H]4CO)O[C@@H]3CO` gave a bioluminescence induction of 870 ± 97 RLU (LuxR; Escherichia coli sensor; 40 µM; higher = stronger induction).
For `C[n+]1ccc(/C=N/NC(=O)c2ccc3ccc(C(=O)N/N=C/c4cc[n+](C)c5ccccc45)nc3n2)c2ccccc21`, the ΔTm was 20.6 ± 0.3 °C (22CTA telomeric G4-DNA antiparallel; FRET melting; 1 µM, K10 buffer, DNA 0.2 µM).
`F[C@@H]1[C@H](c2ccc(-c3cncnc3)cc2)[C@H](F)[C@H](F)C[C@@H]1F` has a hepatic clearance of 14 mL/min/kg (liver microsome stability; dog liver microsomes; 1 µM).
The ΔTm of `O=C(N/N=C/c1ccc2c(ccc[n+]2Cc2ccccc2)c1)c1cccc(C(=O)N/N=C/c2ccc3c(ccc[n+]3Cc3ccccc3)c2)n1` is reported as 16.3 ± 0.5 °C (22CTA telomeric G4-DNA antiparallel; FRET melting; 1 µM, K10 buffer, DNA 0.2 µM).
For `CC(C)Oc1cc(Cl)ccc1CNc1cc(-c2ccccc2)nc2ncnn12`, the cAMP luminescence was 29100 a.u. and 25300 a.u. and 25100 a.u. (endogenous β-adrenergic receptors; cAMP level, cAMP GloSensor; mock-transfected cells; 3 µM, with: isoprenaline 30 nM; higher = more cAMP).
With `C=CC(=O)N1[C@H](c2ccc3c(c2)OCO3)c2[nH]c3ccccc3c2C[C@@H]1C(=O)NC1CC1` the inhibition was 82% (PTGES2 Cys113 human; cysteine IA-DTB labelling, covalent inhibitor, MS-ABPP; 22Rv1; 20 µM, 3 h).
`Cn1ccc2cc(-n3c(=O)[nH]c4sc5c(c4c3=O)CCCC5)ccc21` has an inhibition of -5% (human KATP potassium channel; radioligand binding; 10 µM).
`O=C(N/N=C/c1cc[n+](Cc2ccccc2)c2ccccc12)c1cccc(C(=O)N/N=C/c2cc[n+](Cc3ccccc3)c3ccccc23)c1` gave a ΔTm of 11.2 ± 0.3 °C (22CTA telomeric G4-DNA antiparallel; FRET melting; 1 µM, K10 buffer, DNA 0.2 µM).
`C=CC(=O)Nc1cccc(Cn2ncc3cnc(Nc4cnn(CCOC)c4)nc32)c1`: “percent of control” 83% (FGFR4 human; binding, KINOMEscan; 100 nM; lower = stronger binding).
